{"data": "Experimental data of several laboratories", "note": "Protocols differ between the studies behind these lines. Values joined by “and” are separate records of one study, mostly repeats; a detail may differ. Numbers after ± are the reported error."}
{"Compound": "COc1ccccc1-c1ccncc1C(=O)Nc1nnc(OCc2ccc(Cl)cc2)s1", "cell line": "DLD-1 BRCA2-/-", "setting": "0.5 µM, single replicate", "scale": "baseline: untreated", "quantity": "colony survival", "value": "62.9% and 57.7% and 41.4%"}
{"Compound": "CC(C)(C)C(=O)OCOP(=O)(OCOC(=O)C(C)(C)C)C1CCCN(O)C1=O (centres unmarked)", "cell line": "UO-31", "quantity": "log GI50", "value": "-6.51 log M"}
{"Compound": "CC(C)[C@H](NC(=O)[C@H](CCCNC(=N)N)NC(=O)[C@@H]1CCCN1C(=O)[C@@H](NC(=O)[C@H](C)NC(=O)[C@H](Cc1ccc(O)cc1)NC(=O)[C@H](CCC(N)=O)NC(=O)[C@H](CCCCN)NC(=O)[C@H](CCCNC(=N)N)NC(=O)[C@@H]1CCCN1C(=O)[C@H](CCC(=O)O)NC(=O)[C@@H](NC(=O)[C@H](C)N)[C@@H](C)O)[C@@H](C)O)C(=O)N[C@@H](Cc1ccccc1)C(=O)N[C@@H](Cc1c[nH]c2ccccc12)C(=O)N[C@H](C(=O)N[C@@H](CC(=O)O)C(=O)N[C@@H](C)C(=O)N1CCC[C@H]1C(=O)NCC(=O)NCCOCCOCCOCCOCCOCCOCCOCCOCCOCCOCCOCCOCCC(=O)N[C@@H](CS)C(N)=O)[C@@H](C)O", "cell line": "MiaPaCa pancreatic cancer", "assay": "cell binding, phage binding, measured: output/input phage", "setting": "10 min, 37 °C", "scale": "baseline: control phage", "quantity": "selectivity ratio", "value": "3.7 ± 1.9"}
{"Compound": "CC[C@H](C)[C@H](NC(=O)[C@H](C)NC(=O)CNC(=O)[C@H](Cc1ccccc1)NC(=O)[C@H](CC(N)=O)NC(=O)[C@H](CC(N)=O)NC(=O)[C@H](CO)NC(=O)[C@H](CO)NC(=O)[C@H](Cc1c[nH]cn1)NC(=O)[C@@H](NC(=O)[C@H](CC(C)C)NC(=O)[C@H](Cc1ccccc1)NC(=O)[C@H](CC(N)=O)NC(=O)[C@H](C)NC(=O)[C@H](CC(C)C)NC(=O)[C@H](CCCNC(=N)N)NC(=O)[C@H](CCC(N)=O)NC(=O)[C@@H](NC(=O)[C@H](C)NC(=O)[C@@H]1CSSC[C@H](NC(=O)[C@@H](N)CCCCN)C(=O)N[C@@H](CC(N)=O)C(=O)N[C@@H]([C@@H](C)O)C(=O)N[C@@H](C)C(=O)N[C@@H]([C@@H](C)O)C(=O)N1)[C@@H](C)O)C(C)C)C(=O)N[C@@H](CC(C)C)C(=O)N[C@@H](CO)C(=O)N[C@@H](CO)C(=O)N[C@H](C(=O)N[C@@H](CC(N)=O)C(=O)N[C@H](C(=O)NCC(=O)N[C@@H](CO)C(=O)N[C@@H](CC(N)=O)C(=O)N[C@H](C(=O)N[C@@H](Cc1ccc(O)cc1)C(N)=O)[C@@H](C)O)C(C)C)[C@@H](C)O", "cell line": "RIN-m5F", "assay": "measured: DRAQ5 nuclear marker", "setting": "10 µM, 24 h", "quantity": "Pearson coefficient", "value": "> 0.6"}
{"Compound": "CC(C)Cc1ccc(C(C)C(=O)[Se]CC(=O)Nc2cccc(C(F)(F)F)c2)cc1 (centres unmarked)", "cell line": "NCI60 breast subpanel", "assay": "NCI60 five-dose screen", "quantity": "CC50", "value": "12.4 µM"}
{"Compound": "CC(C)Cc1ccc(C(C)C(=O)[O-])cc1.CC(C)Cc1ccc(C(C)C(=O)[O-])cc1.O.[Cu+2].c1ccncc1.c1ccncc1 (centres unmarked)", "cell line": "MRC-5", "assay": "MTT", "setting": "48 h", "quantity": "TGI", "value": "> 100 µM"}
{"Compound": "O=C(C[Se]C(=O)c1ccccc1)Nc1cccc(C(F)(F)F)c1", "cell line": "NCI60 colon subpanel", "assay": "NCI60 five-dose screen", "quantity": "CC50", "value": "39.6 µM"}
{"Compound": "O=C(O)c1ccc(-c2nc(-c3ccccc3Cl)c3sccn23)cc1", "cell line": "K562", "assay": "megakaryocyte differentiation, flow cytometry", "setting": "0.1 mM, 24 h", "scale": "baseline: untreated", "quantity": "CD61 fluorescence intensity", "value": "1.01 fold change and 1.03 fold change"}
{"note": "Repeated from above:"}
{"Compound": "CC(C)Cc1ccc(C(C)C(=O)[Se]CC(=O)Nc2cccc(C(F)(F)F)c2)cc1 (centres unmarked)", "cell line": "NCI60 breast subpanel", "assay": "NCI60 five-dose screen", "quantity": "CC50", "value": "12.4 µM"}
